Published values pooled from the literature.
A part holds a random share of what one study measured.
Chain of UniProt Q12866 (whole entry, looked up): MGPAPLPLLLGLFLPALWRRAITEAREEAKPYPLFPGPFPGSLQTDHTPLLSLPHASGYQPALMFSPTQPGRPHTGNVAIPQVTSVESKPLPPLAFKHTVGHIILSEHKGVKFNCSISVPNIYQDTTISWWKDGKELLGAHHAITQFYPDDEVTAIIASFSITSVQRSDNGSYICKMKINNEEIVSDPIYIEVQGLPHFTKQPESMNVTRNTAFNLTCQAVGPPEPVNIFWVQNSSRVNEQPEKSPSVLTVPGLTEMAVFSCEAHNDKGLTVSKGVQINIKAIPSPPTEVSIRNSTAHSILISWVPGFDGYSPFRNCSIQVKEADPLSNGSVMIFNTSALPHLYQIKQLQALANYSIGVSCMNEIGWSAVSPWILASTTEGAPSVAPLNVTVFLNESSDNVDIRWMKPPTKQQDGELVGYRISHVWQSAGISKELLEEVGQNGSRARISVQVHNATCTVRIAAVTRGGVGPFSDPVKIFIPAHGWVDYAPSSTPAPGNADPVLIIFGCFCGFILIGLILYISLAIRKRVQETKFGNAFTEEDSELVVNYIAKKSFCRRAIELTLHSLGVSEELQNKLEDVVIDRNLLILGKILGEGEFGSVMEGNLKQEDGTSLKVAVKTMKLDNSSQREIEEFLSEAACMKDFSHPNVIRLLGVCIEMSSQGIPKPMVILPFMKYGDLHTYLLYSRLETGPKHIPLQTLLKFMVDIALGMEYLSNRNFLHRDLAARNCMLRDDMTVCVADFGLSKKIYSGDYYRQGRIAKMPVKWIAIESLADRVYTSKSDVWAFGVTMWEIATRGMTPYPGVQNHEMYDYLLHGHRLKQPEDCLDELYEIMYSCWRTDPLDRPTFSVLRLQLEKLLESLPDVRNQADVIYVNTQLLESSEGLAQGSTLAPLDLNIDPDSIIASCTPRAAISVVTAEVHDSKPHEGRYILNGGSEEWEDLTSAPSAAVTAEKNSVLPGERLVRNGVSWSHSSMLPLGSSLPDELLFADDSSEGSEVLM
Chain of UniProt Q13976 (whole entry, looked up): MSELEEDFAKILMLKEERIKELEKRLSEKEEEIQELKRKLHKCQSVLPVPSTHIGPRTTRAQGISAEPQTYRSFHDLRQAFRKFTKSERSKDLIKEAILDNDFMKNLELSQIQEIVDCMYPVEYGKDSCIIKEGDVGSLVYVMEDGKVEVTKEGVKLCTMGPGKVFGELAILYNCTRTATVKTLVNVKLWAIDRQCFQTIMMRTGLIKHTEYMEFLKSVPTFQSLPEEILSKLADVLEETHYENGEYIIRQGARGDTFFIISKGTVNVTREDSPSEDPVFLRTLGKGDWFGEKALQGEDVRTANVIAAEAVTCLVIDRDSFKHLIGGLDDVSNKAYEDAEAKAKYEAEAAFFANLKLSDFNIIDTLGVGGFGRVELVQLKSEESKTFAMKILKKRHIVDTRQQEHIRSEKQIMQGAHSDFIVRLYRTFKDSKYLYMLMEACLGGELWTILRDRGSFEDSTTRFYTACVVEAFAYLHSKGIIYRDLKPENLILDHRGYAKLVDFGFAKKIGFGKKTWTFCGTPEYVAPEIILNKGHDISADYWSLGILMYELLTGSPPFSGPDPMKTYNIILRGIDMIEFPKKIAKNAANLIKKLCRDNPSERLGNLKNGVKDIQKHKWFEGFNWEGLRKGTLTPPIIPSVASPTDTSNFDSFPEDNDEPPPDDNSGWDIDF
Chain of UniProt O15146 (whole entry, looked up): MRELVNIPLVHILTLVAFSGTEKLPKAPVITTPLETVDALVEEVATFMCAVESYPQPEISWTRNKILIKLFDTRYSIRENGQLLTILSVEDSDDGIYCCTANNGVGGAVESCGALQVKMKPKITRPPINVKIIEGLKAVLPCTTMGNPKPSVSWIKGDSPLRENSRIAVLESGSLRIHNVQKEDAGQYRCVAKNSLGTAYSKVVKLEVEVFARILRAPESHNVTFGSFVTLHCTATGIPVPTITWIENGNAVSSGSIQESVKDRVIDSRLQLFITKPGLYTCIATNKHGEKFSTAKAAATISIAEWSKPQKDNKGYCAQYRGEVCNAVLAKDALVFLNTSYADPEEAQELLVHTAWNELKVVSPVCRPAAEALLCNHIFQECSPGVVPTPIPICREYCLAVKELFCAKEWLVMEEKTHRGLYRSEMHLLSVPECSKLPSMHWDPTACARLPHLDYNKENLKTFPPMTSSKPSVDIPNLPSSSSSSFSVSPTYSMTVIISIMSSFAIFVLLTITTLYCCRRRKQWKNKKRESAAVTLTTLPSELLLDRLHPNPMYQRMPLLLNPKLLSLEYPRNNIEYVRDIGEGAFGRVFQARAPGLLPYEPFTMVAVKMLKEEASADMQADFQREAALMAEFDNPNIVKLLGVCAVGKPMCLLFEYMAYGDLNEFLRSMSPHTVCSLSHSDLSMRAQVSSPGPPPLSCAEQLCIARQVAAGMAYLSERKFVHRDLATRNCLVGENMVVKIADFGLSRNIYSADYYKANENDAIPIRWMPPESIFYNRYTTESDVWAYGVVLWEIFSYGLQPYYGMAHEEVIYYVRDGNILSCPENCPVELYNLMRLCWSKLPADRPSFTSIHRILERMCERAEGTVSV
Chain of UniProt O15264 (whole entry, looked up): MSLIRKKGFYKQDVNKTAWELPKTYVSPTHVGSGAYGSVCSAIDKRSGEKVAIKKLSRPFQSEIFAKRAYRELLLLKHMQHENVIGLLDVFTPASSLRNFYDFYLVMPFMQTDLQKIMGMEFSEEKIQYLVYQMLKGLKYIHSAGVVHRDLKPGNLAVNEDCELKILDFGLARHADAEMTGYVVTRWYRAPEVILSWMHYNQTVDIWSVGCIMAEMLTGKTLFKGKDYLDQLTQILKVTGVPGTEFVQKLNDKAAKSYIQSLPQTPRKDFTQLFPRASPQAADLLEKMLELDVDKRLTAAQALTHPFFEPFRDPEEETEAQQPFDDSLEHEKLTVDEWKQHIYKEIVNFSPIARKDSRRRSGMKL
Chain of UniProt P27037 (whole entry, looked up): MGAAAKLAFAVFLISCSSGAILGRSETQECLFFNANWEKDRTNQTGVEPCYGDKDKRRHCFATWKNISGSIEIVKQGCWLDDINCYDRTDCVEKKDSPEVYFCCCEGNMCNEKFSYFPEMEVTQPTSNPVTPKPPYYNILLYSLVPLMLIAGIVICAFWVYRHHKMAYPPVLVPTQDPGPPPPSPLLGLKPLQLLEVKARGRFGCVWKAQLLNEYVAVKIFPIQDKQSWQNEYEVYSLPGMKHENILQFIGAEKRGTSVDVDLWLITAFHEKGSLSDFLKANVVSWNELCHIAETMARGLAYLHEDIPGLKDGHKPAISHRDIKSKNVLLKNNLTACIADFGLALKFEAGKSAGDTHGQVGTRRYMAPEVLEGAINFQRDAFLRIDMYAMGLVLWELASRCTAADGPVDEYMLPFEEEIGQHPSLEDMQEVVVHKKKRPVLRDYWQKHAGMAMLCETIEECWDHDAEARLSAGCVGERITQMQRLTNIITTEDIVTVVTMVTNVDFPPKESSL

Study 1
Structure (SMILES): Cc1ccc(O)c(C)c1-c1cnc2[nH]c(-c3cnc(N4CCC(CN5CCN(c6ccc7c(c6)CN(C6CCC(=O)NC6=O)C7=O)CC5)CC4)nc3)cc2c1C#N (stereo not shown)
Target: Membrane-associated tyrosine- and threonine-specific cdc2-inhibitory kinase (PKMYT1, Homo sapiens, UniProt Q99640)
Quantity: inhibition
Residues (Q99640 1-499): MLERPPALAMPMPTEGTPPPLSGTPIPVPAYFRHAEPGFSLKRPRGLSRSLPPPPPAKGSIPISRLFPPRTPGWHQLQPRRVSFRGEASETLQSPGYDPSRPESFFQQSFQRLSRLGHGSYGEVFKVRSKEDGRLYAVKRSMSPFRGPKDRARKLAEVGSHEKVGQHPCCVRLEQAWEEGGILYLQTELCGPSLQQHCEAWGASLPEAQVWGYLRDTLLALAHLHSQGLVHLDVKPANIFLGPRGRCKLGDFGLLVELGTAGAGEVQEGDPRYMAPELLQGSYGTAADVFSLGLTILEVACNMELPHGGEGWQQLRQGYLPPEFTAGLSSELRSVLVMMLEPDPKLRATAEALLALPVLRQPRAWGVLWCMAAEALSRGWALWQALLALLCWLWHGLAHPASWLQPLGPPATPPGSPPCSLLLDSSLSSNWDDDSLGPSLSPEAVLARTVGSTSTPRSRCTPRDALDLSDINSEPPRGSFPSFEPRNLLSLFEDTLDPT
0.00137 µM: 23.4%
1 µM: 100%
0.1111 µM: 101%
cell-free assay, inhibitor, TR-FRET; 12.35 nM: 92.1%
0.01235 µM: 93.2%
cell-free assay, inhibitor, TR-FRET; 0.3333 µM: 104%
0.3333 µM: 100%
0.00412 µM: 61.3%
5.1e-05 µM: -2.65%
cell-free assay, inhibitor, TR-FRET; 152 pM: -1.78%

Study 2
SMILES: CNc1ncc2cc(-c3cc(OC)cc(OC)c3Cl)c(=O)n(CCc3ccc(NC(=O)C(C#N)=CC(C)(C)N4CCOCC4)cc3)c2n1
Read-out: kinase activity
Quantity: inhibition
Tyrosine-protein kinase ZAP-70 (ZAP70, Homo sapiens, UniProt P43403); 0.1 µM: -4%
Ribosomal protein S6 kinase alpha-1 (RPS6KA1, Homo sapiens, UniProt Q15418); 0.1 µM: -2%
Mitogen-activated protein kinase kinase kinase kinase 2 (MAP4K2, Homo sapiens, UniProt Q12851); 1 µM: -12%
Inhibitor of nuclear factor kappa-B kinase subunit beta (IKBKB, Homo sapiens, UniProt O14920); 1 µM: -1%
Testis-specific serine/threonine-protein kinase 2 (TSSK2, Homo sapiens, UniProt Q96PF2); 1 µM: 5%
Serine/threonine-protein kinase PLK4 (PLK4, Homo sapiens, UniProt O00444); 1 µM: 5%
Muscle, skeletal receptor tyrosine-protein kinase (MUSK, Homo sapiens, UniProt O15146); 0.1 µM: 4%
Glycogen synthase kinase-3 beta (GSK3B, Homo sapiens, UniProt P49841); 0.1 µM: 0%
Cyclin-dependent kinase 1 (CDK1, Homo sapiens, UniProt P06493); 0.1 µM: 6%
cGMP-dependent protein kinase 1 (PRKG1, Homo sapiens, UniProt Q13976); 0.1 µM: 1%
Protein-tyrosine kinase 6 (PTK6, Homo sapiens, UniProt Q13882); 1 µM: 0%
Tyrosine-protein kinase Fgr (FGR, Homo sapiens, UniProt P09769); 1 µM: 28%
Serine/threonine-protein kinase Nek6 (NEK6, Homo sapiens, UniProt Q9HC98); 1 µM: -7%
Tyrosine-protein kinase ABL1 (ABL1, Homo sapiens, UniProt P00519); 0.1 µM: 1%
Tyrosine-protein kinase Mer (MERTK, Homo sapiens, UniProt Q12866); 1 µM: -2%
Dual specificity tyrosine-phosphorylation-regulated kinase 1B (DYRK1B, Homo sapiens, UniProt Q9Y463); 0.1 µM: 6%
Tyrosine-protein kinase JAK3 (JAK3, Homo sapiens, UniProt P52333); 0.1 µM: -1%

Study 3
Structure (SMILES): C[C@@H]1CN(c2ccc(-c3cc(C(=O)NCCOCCOCCOCCOCCOCCOCCNC(=O)/C=C/c4[nH]cc(C(=O)N[C@@H](CC(N)=O)c5ccc(F)c(Cl)c5)c4-c4ccc(Cl)cc4F)ccc3F)cc2NC(=O)c2ccc(F)cc2C(F)(F)F)C[C@H](C)N1C
Read-out: thermal unfolding
Method: differential scanning fluorimetry
Tested at: 5.5 µM
Direction: higher = more unfolded
Quantity: SYPRO Orange fluorescence
DCAF1: DDB1- and CUL4-associated factor 1 (DCAF1, Homo sapiens, UniProt Q9Y4B6)
Chain of UniProt Q9Y4B6 (whole entry, looked up): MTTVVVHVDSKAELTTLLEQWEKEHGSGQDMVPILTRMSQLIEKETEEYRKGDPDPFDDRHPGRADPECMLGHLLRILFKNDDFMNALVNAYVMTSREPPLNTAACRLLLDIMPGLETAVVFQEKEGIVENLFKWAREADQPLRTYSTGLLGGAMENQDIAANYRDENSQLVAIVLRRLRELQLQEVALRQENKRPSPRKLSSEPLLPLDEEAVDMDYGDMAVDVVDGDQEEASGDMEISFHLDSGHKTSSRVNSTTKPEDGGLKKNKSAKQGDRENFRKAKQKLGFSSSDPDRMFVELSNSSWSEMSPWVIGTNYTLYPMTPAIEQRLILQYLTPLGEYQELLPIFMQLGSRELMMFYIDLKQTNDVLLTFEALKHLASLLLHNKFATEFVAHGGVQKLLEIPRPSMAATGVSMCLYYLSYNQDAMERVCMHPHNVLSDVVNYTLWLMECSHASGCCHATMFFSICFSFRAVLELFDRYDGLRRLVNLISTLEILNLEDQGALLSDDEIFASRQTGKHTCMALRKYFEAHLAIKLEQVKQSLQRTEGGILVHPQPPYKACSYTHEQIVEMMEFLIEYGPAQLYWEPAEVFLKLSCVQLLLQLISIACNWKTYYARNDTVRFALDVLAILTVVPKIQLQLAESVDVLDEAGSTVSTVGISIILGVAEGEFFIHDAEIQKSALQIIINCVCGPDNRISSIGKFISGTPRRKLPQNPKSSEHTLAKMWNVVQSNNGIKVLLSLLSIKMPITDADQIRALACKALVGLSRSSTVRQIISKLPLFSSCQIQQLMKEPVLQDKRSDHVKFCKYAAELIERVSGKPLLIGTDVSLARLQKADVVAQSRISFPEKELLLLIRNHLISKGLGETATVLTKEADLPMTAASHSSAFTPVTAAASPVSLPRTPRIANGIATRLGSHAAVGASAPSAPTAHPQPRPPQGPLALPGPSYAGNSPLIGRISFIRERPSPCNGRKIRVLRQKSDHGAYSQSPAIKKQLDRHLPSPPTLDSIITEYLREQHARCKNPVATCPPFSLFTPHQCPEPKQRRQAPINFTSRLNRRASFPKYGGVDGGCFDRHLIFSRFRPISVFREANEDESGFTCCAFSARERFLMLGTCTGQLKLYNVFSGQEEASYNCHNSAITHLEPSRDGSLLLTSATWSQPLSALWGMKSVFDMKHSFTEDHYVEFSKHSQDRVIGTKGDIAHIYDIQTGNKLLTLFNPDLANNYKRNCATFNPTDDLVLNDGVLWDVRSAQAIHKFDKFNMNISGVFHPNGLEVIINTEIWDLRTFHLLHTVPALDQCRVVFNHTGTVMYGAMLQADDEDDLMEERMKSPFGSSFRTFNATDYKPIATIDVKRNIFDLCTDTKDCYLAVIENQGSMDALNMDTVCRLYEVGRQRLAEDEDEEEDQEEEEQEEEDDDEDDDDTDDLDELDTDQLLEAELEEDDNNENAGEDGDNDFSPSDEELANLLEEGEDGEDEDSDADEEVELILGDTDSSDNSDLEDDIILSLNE
WDR5: WD repeat-containing protein 5 (WDR5, Homo sapiens, UniProt P61964)
DCAF1; 64.41 °C: 53900 a.u.
WDR5; 33.8 °C: 13800 a.u.
DCAF1; 38.8 °C: 11100 a.u.
DCAF1; 44.8 °C: 14500 a.u.
WDR5; 35 °C: 13900 a.u.
WDR5; 57.61 °C: 15800 a.u.
DCAF1; 80.41 °C: 39700 a.u.
DCAF1; 81.41 °C: 39000 a.u.
DCAF1; 36.4 °C: 10500 a.u.
WDR5; 55.41 °C: 16600 a.u.
WDR5; 54.01 °C: 16900 a.u.

Study 4
SMILES: COc1cc(-c2nc3ccc(C(=O)NCCCN(C)C)cc3n2C2CCC2)cc(OC)c1OC
Read-out: binding
Method: competition with immobilised ligand
Tested at: 1 µM
Quantity: remaining binding
Non-receptor tyrosine-protein kinase TYK2, JH1 (TYK2, Homo sapiens, UniProt P29597): 95%
Serine/threonine-protein kinase 35 (STK35, Homo sapiens, UniProt Q8TDR2): 88%
Ephrin type-A receptor 4 (EPHA4, Homo sapiens, UniProt P54764): 100%
NUAK family SNF1-like kinase 1 (NUAK1, Homo sapiens, UniProt O60285): 96%
Peripheral plasma membrane protein CASK (CASK, Homo sapiens, UniProt O14936): 100%
Serine/threonine-protein kinase Nek5 (NEK5, Homo sapiens, UniProt Q6P3R8): 99%
Ephrin type-A receptor 5 (EPHA5, Homo sapiens, UniProt P54756): 100%
Cyclin-dependent kinase 7 (CDK7, Homo sapiens, UniProt P50613): 84%
5'-AMP-activated protein kinase catalytic subunit alpha-2 (PRKAA2, Homo sapiens, UniProt P54646): 97%
Mitogen-activated protein kinase 13 (MAPK13, Homo sapiens, UniProt O15264): 100%
Phosphatidylinositol 4,5-bisphosphate 3-kinase catalytic subunit gamma isoform (PIK3CG, Homo sapiens, UniProt P48736): 100%
cGMP-dependent protein kinase 1 (PRKG1, Homo sapiens, UniProt Q13976): 98%
Tyrosine-protein kinase Mer (MERTK, Homo sapiens, UniProt Q12866): 86%
Ephrin type-B receptor 1 (EPHB1, Homo sapiens, UniProt P54762): 71%
Serine/threonine-protein kinase TBK1 (TBK1, Homo sapiens, UniProt Q9UHD2): 91%
Tyrosine-protein kinase SYK (SYK, Homo sapiens, UniProt P43405): 100%
Serine/threonine-protein kinase 10 (STK10, Homo sapiens, UniProt O94804): 80%
Activin receptor type-2A (ACVR2A, Homo sapiens, UniProt P27037): 100%
MAP/microtubule affinity-regulating kinase 3 (MARK3, Homo sapiens, UniProt P27448): 96%
Cytoplasmic tyrosine-protein kinase BMX (BMX, Homo sapiens, UniProt P51813): 93%

Excerpt of the above (study 2):
Inhibitor of nuclear factor kappa-B kinase subunit beta (IKBKB, Homo sapiens, UniProt O14920); 1 µM: -1%
Testis-specific serine/threonine-protein kinase 2 (TSSK2, Homo sapiens, UniProt Q96PF2); 1 µM: 5%
Serine/threonine-protein kinase PLK4 (PLK4, Homo sapiens, UniProt O00444); 1 µM: 5%
Muscle, skeletal receptor tyrosine-protein kinase (MUSK, Homo sapiens, UniProt O15146); 0.1 µM: 4%
Glycogen synthase kinase-3 beta (GSK3B, Homo sapiens, UniProt P49841); 0.1 µM: 0%
Cyclin-dependent kinase 1 (CDK1, Homo sapiens, UniProt P06493); 0.1 µM: 6%
cGMP-dependent protein kinase 1 (PRKG1, Homo sapiens, UniProt Q13976); 0.1 µM: 1%
Protein-tyrosine kinase 6 (PTK6, Homo sapiens, UniProt Q13882); 1 µM: 0%
Tyrosine-protein kinase Fgr (FGR, Homo sapiens, UniProt P09769); 1 µM: 28%
Serine/threonine-protein kinase Nek6 (NEK6, Homo sapiens, UniProt Q9HC98); 1 µM: -7%
